Assay results of several laboratories.
Lines come from different studies, so protocols differ. Several values in a cell are separate wells, animals, samples, runs or records.
Target: Ephrin type-B receptor 4 (EPHB4, Homo sapiens, UniProt P54760)

Compound	assay	setting	how to read	quantity	result
COc1c(Cl)cccc1Nc1c(-c2ccncc2C#C[C@@]2(C)CCCN2C(=O)/C=C/CN(C)C)[nH]c2c1C(=O)NCC2	cell-free assay, competition with immobilised ligand	3 µM	–	remaining binding	96%
COc1ccc(O)cc1-c1c[nH]c2ncc(-c3cncc(C(=O)N(C)C)c3)cc12	binding, competition with immobilised ligand	0.2 µM	–	inhibition	4.69%
Nc1ncc(-c2cc(-c3cnn(CC(F)(F)F)c3)ncc2F)nc1C(=O)NC1CNCC(F)C1 (stereo not shown)	enzyme activity	1 µM	reference: DMSO control	remaining activity	85.4%
Cc1cccc(O[C@H]2CCC[C@@H](C(C)CNCc3ccncc3)C2)c1 (relative stereo)	cell-free assay	10 µM	–	inhibition	-3%
NC(=O)C[C@H]1CCc2sc3ncnc(O[C@H]4CC[C@H](N5CCOCC5)CC4)c3c21	enzyme activity, inhibitor	10 µM	–	inhibition	24%
C[C@H]1CN(C(=O)c2cn(-c3ccnc(N)n3)c3cc(C#CC4(O)CCCCC4)ccc23)CCN1	enzyme activity, inhibitor, FRET	1 µM	–	inhibition	3%
CCN1CCN(Cc2ccc(C(=O)Nc3ccc(C)c(NCc4cnc5[nH]ccc5c4OC)c3)cc2C(F)(F)F)CC1	binding, competition with immobilised ligand	1 µM	–	remaining binding	23%
O=C(Nc1ccc(Oc2ncnc3[nH]cc(-c4ccccc4)c23)c(F)c1)c1c2n(n(-c3cc(F)ccc3F)c1=O)CCCC2	enzyme activity, inhibitor	0.5 µM	–	inhibition	19%
C=CC(=O)N1Cc2nc(-c3cc(-c4cc(Cl)cnc4Cl)c(F)cc3F)n(-c3ccncn3)c2C1	cell-free assay	1 µM	–	inhibition	2.2%
C=CC(=O)Nc1cccc(-c2cnc3[nH]cc(C(=O)NC(C)(C)C)c3n2)c1	kinase activity	0.1 µM	–	inhibition	0% and -6%
O=C=[N][Ru-4]123([n]4c5ccc(O)cc5c5c6c(c7cc(F)c[n+]1c7c54)C(=O)NC6=O)[S+]1CC[S+]2CC[S+]3CC1 (stereo not shown)	enzyme activity	100 nM, human enzyme, together with: 10 µM ATP	reference: untreated	remaining activity	113%
COc1c(OCCCN2CCOCC2)ccc2c1N=C(NC(=O)c1cnc(N)nc1)N1CCN=C21	kinase activity, inhibitor	1 µM	reference: untreated control	remaining activity	113%
COc1cc(-n2cc3cc(F)cc(C(N)=O)c3n2)cc(Cl)c1C1CC(O)(CCO)Cc2ccccc21 (stereo not shown)	enzyme activity, inhibitor	10 µM	–	inhibition	0.39%
